Experimental data of several laboratories.
Each numbered part is a random draw from the data of one study; scales do not carry over between parts. “And” joins repeats or separate records; there may be more than shown.
Chain of UniProt O43353 (whole entry, looked up): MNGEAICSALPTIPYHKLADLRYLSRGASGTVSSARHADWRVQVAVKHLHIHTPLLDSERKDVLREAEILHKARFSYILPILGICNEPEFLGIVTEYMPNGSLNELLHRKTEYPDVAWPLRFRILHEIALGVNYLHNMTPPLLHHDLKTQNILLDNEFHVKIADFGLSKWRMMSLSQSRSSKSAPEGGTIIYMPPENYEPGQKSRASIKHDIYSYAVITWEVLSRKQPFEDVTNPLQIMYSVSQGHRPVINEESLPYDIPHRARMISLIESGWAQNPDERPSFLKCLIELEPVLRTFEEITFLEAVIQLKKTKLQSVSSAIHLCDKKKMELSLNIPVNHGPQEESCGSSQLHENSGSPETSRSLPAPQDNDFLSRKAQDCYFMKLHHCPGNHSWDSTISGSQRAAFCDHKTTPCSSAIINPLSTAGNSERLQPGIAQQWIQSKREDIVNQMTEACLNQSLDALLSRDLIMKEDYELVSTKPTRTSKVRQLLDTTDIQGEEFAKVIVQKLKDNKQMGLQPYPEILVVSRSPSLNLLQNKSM
Chain of UniProt Q96BR1 (whole entry, looked up): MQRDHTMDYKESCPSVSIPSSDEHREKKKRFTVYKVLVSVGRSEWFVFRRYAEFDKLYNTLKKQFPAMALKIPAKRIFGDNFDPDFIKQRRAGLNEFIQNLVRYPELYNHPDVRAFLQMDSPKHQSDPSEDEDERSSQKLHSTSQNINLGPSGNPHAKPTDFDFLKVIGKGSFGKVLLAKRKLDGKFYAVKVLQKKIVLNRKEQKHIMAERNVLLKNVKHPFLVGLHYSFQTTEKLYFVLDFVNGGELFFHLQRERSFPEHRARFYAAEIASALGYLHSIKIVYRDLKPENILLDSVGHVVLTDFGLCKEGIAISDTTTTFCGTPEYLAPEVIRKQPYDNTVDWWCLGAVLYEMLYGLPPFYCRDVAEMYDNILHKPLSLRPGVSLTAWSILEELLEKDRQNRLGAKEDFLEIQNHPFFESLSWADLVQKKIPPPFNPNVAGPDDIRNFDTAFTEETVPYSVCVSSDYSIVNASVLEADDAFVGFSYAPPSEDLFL
Chain of UniProt P80192 (whole entry, looked up): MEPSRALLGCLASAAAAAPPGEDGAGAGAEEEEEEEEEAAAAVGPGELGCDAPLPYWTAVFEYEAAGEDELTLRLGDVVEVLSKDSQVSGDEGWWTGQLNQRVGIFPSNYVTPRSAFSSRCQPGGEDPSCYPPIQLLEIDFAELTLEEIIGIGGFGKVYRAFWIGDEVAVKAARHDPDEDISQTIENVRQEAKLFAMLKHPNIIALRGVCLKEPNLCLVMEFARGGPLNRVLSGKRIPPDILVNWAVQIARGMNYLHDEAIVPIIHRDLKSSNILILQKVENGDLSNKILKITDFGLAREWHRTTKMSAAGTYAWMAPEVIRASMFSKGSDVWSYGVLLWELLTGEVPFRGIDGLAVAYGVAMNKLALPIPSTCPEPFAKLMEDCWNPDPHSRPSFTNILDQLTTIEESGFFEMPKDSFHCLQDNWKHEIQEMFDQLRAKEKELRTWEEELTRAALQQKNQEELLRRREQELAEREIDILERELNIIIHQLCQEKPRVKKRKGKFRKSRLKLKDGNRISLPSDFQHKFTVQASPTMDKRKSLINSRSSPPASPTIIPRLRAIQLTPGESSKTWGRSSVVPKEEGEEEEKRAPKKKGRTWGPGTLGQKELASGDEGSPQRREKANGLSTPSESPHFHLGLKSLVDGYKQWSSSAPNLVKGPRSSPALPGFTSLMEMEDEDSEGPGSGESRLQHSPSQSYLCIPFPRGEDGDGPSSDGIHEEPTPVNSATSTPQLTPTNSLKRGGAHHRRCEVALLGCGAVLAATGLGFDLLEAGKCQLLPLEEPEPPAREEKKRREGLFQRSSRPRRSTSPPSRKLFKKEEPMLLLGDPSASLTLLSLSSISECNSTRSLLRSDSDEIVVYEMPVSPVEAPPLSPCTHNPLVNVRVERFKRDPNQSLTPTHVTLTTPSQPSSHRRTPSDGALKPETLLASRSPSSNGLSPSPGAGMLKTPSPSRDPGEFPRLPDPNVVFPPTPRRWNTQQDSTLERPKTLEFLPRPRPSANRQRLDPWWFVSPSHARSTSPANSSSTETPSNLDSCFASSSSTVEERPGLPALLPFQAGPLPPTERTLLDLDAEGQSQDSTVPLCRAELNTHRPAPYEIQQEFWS
Chain of UniProt Q92630 (whole entry, looked up): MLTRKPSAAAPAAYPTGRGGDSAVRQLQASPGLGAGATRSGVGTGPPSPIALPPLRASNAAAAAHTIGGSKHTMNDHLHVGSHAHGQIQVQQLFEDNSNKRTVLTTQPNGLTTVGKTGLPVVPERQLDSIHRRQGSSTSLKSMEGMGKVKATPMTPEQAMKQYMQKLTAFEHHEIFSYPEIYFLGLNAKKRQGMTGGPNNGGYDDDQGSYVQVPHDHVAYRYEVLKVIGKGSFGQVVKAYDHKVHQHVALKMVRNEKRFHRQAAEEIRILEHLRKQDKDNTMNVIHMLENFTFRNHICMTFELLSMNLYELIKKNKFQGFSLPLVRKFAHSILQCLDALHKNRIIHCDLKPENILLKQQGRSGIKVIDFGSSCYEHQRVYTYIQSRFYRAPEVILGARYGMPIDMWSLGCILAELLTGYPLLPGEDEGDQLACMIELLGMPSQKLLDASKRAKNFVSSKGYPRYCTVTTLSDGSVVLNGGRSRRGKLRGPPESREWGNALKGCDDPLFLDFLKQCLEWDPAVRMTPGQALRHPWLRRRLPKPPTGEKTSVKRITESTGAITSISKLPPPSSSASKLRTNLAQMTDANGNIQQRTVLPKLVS
Chain of UniProt P53350 (whole entry, looked up): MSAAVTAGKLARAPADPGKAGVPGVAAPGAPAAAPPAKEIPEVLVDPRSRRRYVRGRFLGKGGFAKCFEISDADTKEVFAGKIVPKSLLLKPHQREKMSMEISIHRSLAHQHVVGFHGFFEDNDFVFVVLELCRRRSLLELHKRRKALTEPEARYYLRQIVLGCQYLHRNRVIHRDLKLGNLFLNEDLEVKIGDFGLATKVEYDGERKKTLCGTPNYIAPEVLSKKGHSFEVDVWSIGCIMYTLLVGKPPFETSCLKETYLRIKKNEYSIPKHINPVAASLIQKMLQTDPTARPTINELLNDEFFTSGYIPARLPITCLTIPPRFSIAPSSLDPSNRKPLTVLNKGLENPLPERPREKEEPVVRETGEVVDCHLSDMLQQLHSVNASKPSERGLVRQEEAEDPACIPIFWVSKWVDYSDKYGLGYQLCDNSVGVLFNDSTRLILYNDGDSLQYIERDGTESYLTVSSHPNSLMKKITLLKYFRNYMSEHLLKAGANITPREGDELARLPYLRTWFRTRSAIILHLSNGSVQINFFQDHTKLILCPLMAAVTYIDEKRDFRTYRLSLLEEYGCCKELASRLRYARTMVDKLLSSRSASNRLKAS
Chain of UniProt Q99986 (whole entry, looked up): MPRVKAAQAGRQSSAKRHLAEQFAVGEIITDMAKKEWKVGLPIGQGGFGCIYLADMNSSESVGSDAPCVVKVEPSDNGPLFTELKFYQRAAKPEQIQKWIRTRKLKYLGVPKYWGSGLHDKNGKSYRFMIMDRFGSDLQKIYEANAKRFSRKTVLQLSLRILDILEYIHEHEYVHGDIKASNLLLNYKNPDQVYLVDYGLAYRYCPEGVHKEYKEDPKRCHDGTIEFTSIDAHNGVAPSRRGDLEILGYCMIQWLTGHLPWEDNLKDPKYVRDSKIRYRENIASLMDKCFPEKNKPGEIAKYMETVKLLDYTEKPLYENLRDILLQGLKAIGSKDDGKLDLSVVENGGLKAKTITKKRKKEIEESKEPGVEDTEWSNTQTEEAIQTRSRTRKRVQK

Study 1
Target: Calcium/calmodulin-dependent protein kinase type II subunit alpha (CAMK2A, Homo sapiens, UniProt Q9UQM7)
Chain of UniProt Q9UQM7 (whole entry, looked up): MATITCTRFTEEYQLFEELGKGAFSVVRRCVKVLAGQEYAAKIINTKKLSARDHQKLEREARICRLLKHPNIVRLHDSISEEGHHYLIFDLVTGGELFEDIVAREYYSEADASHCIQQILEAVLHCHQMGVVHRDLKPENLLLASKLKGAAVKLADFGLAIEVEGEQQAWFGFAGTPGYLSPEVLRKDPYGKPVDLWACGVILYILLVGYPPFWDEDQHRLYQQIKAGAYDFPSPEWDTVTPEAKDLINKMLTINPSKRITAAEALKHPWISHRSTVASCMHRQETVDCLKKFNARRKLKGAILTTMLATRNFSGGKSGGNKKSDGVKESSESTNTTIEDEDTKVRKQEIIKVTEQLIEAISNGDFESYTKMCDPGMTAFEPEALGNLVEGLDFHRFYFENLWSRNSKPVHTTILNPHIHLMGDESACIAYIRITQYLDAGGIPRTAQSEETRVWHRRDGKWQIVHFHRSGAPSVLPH
Read-out: enzyme activity
Action: inhibitor
Tested at: 10 µM
| SMILES | inhibition [%] |
| --- | --- |
| CC(C)=CCc1c(O)cc2c(c1O)C(=O)C[C@@H](c1ccc(O)cc1)O2 | -33 |
| CO[C@H]1C[C@H](O[C@H]2CC[C@]3(C)[C@H]4CC[C@]5(C)[C@@H](C6=CC(=O)OC6)CC[C@]5(O)[C@@H]4CC[C@]3(O)C2)O[C@H](C)[C@H]1O[C@@H]1O[C@H](CO)[C@@H](O)[C@H](O)[C@H]1O | -14 |
| C=CCc1ccc(OC)cc1 | -79 |
| COc1cc(O)cc(/C=C/c2ccc(O)cc2)c1 | -21 |
| CCCCOC(=O)c1ccccc1C(=O)OCCCC | 32 |

Study 2
SMILES: CO[C@@H]1[C@@H](OC(N)=O)[C@@H](O)[C@H](Oc2ccc3c(O)c(NC(=O)c4ccc(O)c(CC=C(C)C)c4)c(=O)oc3c2C)OC1(C)C
| cell line | tested at | time | setting | baseline | clonogenic survival |
| --- | --- | --- | --- | --- | --- |
| RPE-1 wild type | 150 µM | – | unit not given | untreated | 1.06 and 0.987 and 0.75 |
| RPE-1 BRCA2-/- | 50 µM | – | unit not given | untreated | 0.803 and 0.837 |
| RPE-1 wild type | 200 µM | – | unit not given | untreated | 0.0125 and 0.1 and 0.0526 |
| RPE-1 wild type | 75 µM | – | unit not given | untreated | 0.986 and 1.14 and 0.95 |
| RPE-1 wild type | 25 µM | – | – | – | 94.7% and 108% and 103% |
| RPE-1 BRCA1-/- PARPi-resistant R2 | 100 µM | 12 to 14 d | – | – | 16.7% and 17.9% and 24.8% |
| CAPAN-1 BRCA2-corrected | 200 µM | – | – | – | 82.8% and 72.7% |
| RPE-1 BRCA2-/- | 10 µM | – | unit not given | untreated | 0.872 and 0.837 and 0.966 |
| CAPAN-1 BRCA2-corrected | 100 µM | – | – | – | 86.8% and 84.8% |

Study 3
Structure (SMILES): COc1ccc2c(c[n+](C)c3c4cc5c(cc4ccc23)OCO5)c1OC
Read-out: enzyme activity
Action: inhibitor
Tested at: 0.5 µM
Baseline: control
| target | remaining activity [%] |
| --- | --- |
| Receptor-interacting serine/threonine-protein kinase 2 (RIPK2, Homo sapiens, UniProt O43353) | 105 |
| Serine/threonine-protein kinase VRK1 (VRK1, Homo sapiens, UniProt Q99986) | 106 |
| Serine/threonine-protein kinase PLK1 (PLK1, Homo sapiens, UniProt P53350) | 93.6 |
| Mitogen-activated protein kinase kinase kinase kinase 5 (MAP4K5, Homo sapiens, UniProt Q9Y4K4) | 89.3 |
| Serine/threonine-protein kinase Sgk3 (SGK3, Homo sapiens, UniProt Q96BR1) | 96 |
| Mitogen-activated protein kinase kinase kinase 9 (MAP3K9, Homo sapiens, UniProt P80192) | 98.1 |
| Dual specificity tyrosine-phosphorylation-regulated kinase 2 (DYRK2, Homo sapiens, UniProt Q92630) | 94.5 |

Study 4
Target: Sodium-dependent noradrenaline transporter (SLC6A2, Homo sapiens, UniProt P23975)
Chain of UniProt P23975 (whole entry, looked up): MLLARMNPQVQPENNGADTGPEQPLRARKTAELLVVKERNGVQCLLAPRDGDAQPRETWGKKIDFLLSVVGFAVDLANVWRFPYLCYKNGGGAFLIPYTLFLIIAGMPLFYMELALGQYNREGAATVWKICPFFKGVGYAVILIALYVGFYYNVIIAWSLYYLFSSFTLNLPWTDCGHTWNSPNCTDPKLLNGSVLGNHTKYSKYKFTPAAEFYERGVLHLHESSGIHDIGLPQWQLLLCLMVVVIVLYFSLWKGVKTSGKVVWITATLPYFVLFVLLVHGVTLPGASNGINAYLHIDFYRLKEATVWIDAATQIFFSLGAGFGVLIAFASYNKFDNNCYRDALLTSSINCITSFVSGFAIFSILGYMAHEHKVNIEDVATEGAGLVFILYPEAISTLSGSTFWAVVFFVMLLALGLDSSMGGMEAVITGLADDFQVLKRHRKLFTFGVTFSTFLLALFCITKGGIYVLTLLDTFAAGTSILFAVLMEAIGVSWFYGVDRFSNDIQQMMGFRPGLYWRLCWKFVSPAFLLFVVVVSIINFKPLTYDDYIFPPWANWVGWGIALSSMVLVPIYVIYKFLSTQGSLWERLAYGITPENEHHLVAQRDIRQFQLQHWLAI
Read-out: binding
Method: radioligand binding
Tested at: 10 µM
| SMILES | inhibition [%] |
| --- | --- |
| COCCc1ccc(-c2c(C)nc3c(N4CCOCC4)ccnn23)cn1 | 16 |
| COc1cc(-c2cn(C3CCc4ccccc4N(CC(F)(F)F)C3=O)nn2)ccc1-n1ccc(C)n1 (stereo not shown) | 49.4 |
| Cc1nc(C2CCN(C(=O)c3ccc(OC(F)(F)F)cc3N)CC2)c2ncc(N3CCN(C)CC3)cc2n1 | 24.6 |
| CN([C@@H]1CCc2c(CC(=O)O)c3cc(S(C)(=O)=O)ccc3n2C1)S(=O)(=O)c1ccc(F)cc1 | 22.3 |
| CCOC(=O)c1cc2cc(-c3cc(C(=O)NCc4ccc(C(=O)O)cc4)nn3C)ccc2[nH]1 | -21.1 |
| CC1=C(C#N)[C@@H](c2ccc3[nH]nc(C)c3c2)C(C#N)=C(c2ccc(Cl)cc2)N1 | 8.56 |
| CCOCCn1cc(C(=O)Nc2ccc(-n3nc(-c4cccnc4)cc3C(F)(F)F)cn2)ccc1=O | -7.51 |
| CC[C@H](CC(=O)O)n1c(=O)c2ncccc2n(Cc2cn(C)c3cc(C)cc(C)c23)c1=O | 31.5 |
| O[C@]1(C(F)(F)F)CCCC[C@H]1Nc1ccc(F)cc1 | 0.78 |
| COc1cccc(CNC(=O)c2nc3scc(COCc4ccc(C(=O)O)cc4)c3c(=O)[nH]2)c1 | 12.6 |
| CC(=O)c1c(NS(C)(=O)=O)c2cc(-c3ccc(Cl)cc3)c(-c3ccc(Cl)cc3Cl)nc2n(C)c1=O | 20.2 |
| CNC(=O)Nc1ccc2c(c1)[C@]1(CC2)OC(=O)N(CC(=O)N(Cc2ccc(F)cc2)[C@@H](C)C(F)(F)F)C1=O | -12 |
| Cc1c(N2CCCC2)nc2ccc(Br)cc2c1C(=O)NC[C@H](CCC(=O)O)c1ccccc1Cl | -12.9 |
| O=C(O)c1cc(-c2ccc(C3CCNCC3)cc2)c2ccc(-c3ccc(C(F)(F)F)cc3)cc2c1 | 23.6 |
| COc1nc2ccc([C@@](O)(c3ccccc3)C3CCN(C(C)=O)CC3)cc2c(Cl)c1Cc1ccc(-n2cccn2)cc1 | 21.7 |
| CN1CCN(C(=O)C(C)(C)c2ccc(C(=O)Nc3cn4cc(-c5ccncc5)ccc4n3)cc2)CC1 | 5.3 |
| C[C@@]1(Cc2ccc(C#N)cc2)C(=O)N(c2cc(Cl)cc(Cl)c2)c2ncc(C(=O)NC3(c4nc(C5CCC5)no4)CC3)n21 | -16.9 |
| CC(=O)Nc1c(F)cc(C(=O)N[C@H]2CC[C@H](O)CC2)cc1O[C@@H](C)c1ccccc1 | -0.92 |
| CCCOc1ccc([C@H]2[C@H](C(=O)O)[C@@H](c3ccc4c(c3)OCO4)CN2CC(=O)Nc2c(CC)cccc2CC)cc1 | -17.5 |
| C[C@@H]1CN(c2cc(-c3nn(C)c4ccc(OC5(C)CC5)cc34)ncn2)C[C@H](C)O1 | 30.6 |
| Cc1nc(Cc2cccc(C(F)(F)F)c2)sc1-c1ccc(C(N)=O)nc1 | -8.77 |
| Cc1c(NC(=O)c2cc(C(N)=O)nc3cc(F)ccc23)c(C(F)(F)F)nn1Cc1ccc(C(C)(C)C)cc1 | -4.06 |
| CC(C)(O)c1cncc(-c2nc3ccc(F)cc3n2C2CC2)c1 | 2.3 |
| O=C(NC[C@@H]1[C@H]2CN(C(=O)OCc3cc(C(F)(F)F)cc(C(F)(F)F)c3)C[C@@H]12)c1ccc2[nH]nnc2c1 | 15.5 |
| CNC(=O)c1ccc(Nc2ncc(C(F)(F)F)c(NCc3nccnc3N(C)S(C)(=O)=O)n2)cc1 | 7.81 |

Study 5
Structure (SMILES): CNC(=O)c1ccc(-c2cnn3ccc(C(=O)N(C)c4ccc(Cl)c(C(=O)OC)c4)cc23)cc1
Organism: Cryptosporidium parvum
Cells: HCT-8
Strain: nanoluciferase-expressing
| method | tested at | time | setting | baseline | direction | parasite luminescence |
| --- | --- | --- | --- | --- | --- | --- |
| time-kill | 0.00102 µM | 8 h | – | – | higher = more parasites | 91700 RLU and 85200 RLU |
| time-kill | 0.02743 µM | 48 h | – | – | higher = more parasites | 26900 RLU and 22500 RLU |
| time-kill | 6.667 µM | 8 h | – | – | higher = more parasites | 117000 RLU and 100000 RLU |
| time-kill | 0.00914 µM | 4 h | – | – | higher = more parasites | 94300 RLU and 92200 RLU |
| time-kill | 20 µM | 24 h | – | – | higher = more parasites | 99100 RLU and 89600 RLU |
| time-kill | 0.00102 µM | 24 h | – | – | higher = more parasites | 253000 RLU and 160000 RLU |
| washout | concentration not given | exposure 0-72 h post-infection | unit not given | day 0 RLU | – | -1760 and -1790 and -1940 and -1830 |
| time-kill | 0.02743 µM | 72 h | – | – | higher = more parasites | 27300 RLU and 17300 RLU |
| time-kill | 0.02743 µM | 24 h | – | – | higher = more parasites | 71100 RLU and 76000 RLU |
